Measured values collected from several papers.
Compare with care: the assays were run in different laboratories. “And” joins repeats or separate records; there may be more than shown.
CHEK2: Serine/threonine-protein kinase Chk2 (CHEK2, Homo sapiens, UniProt O96017)

SMILES	target	assay	setting	how to read	endpoint	result
COc1c(Cl)cccc1Nc1c(-c2ccncc2C#C[C@@]2(C)CCCN2C(=O)/C=C/CN(C)C)[nH]c2c1C(=O)NCC2	CHEK2	binding, competition with immobilised ligand	3 µM		remaining binding	92%
CN1CCN(Cc2ccc(-c3ccc(CO[C@H]4CCC[C@@H]4NC(=O)c4cc(-c5cnn(C)c5)cnc4N)cc3)cc2)CC1	CHEK2	enzyme activity, inhibitor	0.1 µM		inhibition	55%
C=CC(=O)N1Cc2nc(-c3cc(-c4cc(Cl)cnc4Cl)c(F)cc3F)n(-c3ccncn3)c2C1	CHEK2	cell-free assay, inhibitor	1 µM		inhibition	9.3%
Cc1cnc2nc1Nc1cccc(c1)COC/C=C/COCc1cc(ccc1OCCN1CCOCC1)N2	CHEK2	binding	0.1 µM		remaining binding	87%
COc1cc(-n2cc3cc(F)cc(C(N)=O)c3n2)cc(Cl)c1C1CC(O)(CCO)Cc2ccccc21 (centres unmarked)	CHEK2	enzyme activity, inhibitor	10 µM		inhibition	5.78%
C=CC(=O)Nc1cccc(-c2cnc3[nH]cc(C(=O)NC(C)(C)C)c3n2)c1	CHEK2	kinase activity	0.1 µM		inhibition	17% and 10%
COc1ccc(O)cc1-c1c[nH]c2ncc(-c3cncc(C(=O)N(C)C)c3)cc12	CHEK2	binding, competition with immobilised ligand	0.2 µM		inhibition	12.2%
CNC(=O)C[C@H](Cc1ccc(C#N)cc1)NC(=O)c1cc(-c2ccc(CN[C@H](C)c3ccc(C)cc3)o2)ccc1Cl	CHEK2	enzyme activity, inhibitor	1 µM		activity vs control	110%
O=C(Cc1ccc(OCc2ccccc2)cc1)NC1(C(=O)O)CCN(C(=O)c2ccc(-c3cccc(Cl)c3)cc2)CC1	CHEK2	enzyme activity, inhibitor	10 µM		activity vs control	107%
CNC(=O)C1CCN(c2cc(C)c(F)cc2NC(=O)c2ccc(-c3cc(O)ccc3C)c(C)c2)CC1	CHEK2	binding, competition with immobilised ligand	1 µM		remaining binding	98%
NC(=O)[C@@H](O)C[C@H]1CCc2sc3ncnc(O[C@H]4CC[C@H](N5CCOCC5)CC4)c3c21	CHEK2	enzyme activity, inhibitor	10 µM		inhibition	8%
Cc1nc2c(F)cc(-c3nc(Nc4ccc(CNC(=O)CCCCCCC(=O)NO)cc4)ncc3F)cc2n1C(C)C	CHEK2 (Homo sapiens, UniProt O96017, I157T)	enzyme activity, inhibitor	1 µM		inhibition	60%
Cc1ccc(C)c(-c2ccc3nc(NC(=O)C4CCCCC4)nn3c2)c1	CHEK2	enzyme activity, Dundee kinase panel	10 µM		remaining activity	76%
O=C=[N][Ru-4]123([n]4c5ccc(O)cc5c5c6c(c7cc(F)c[n+]1c7c54)C(=O)NC6=O)[S+]1CC[S+]2CC[S+]3CC1 (centres unmarked)	CHEK2 (Homo sapiens, UniProt O96017, R145W)	enzyme activity	100 nM, human enzyme, added: 10 µM ATP	baseline: untreated	remaining activity	88%
